Published values gathered from unrelated publications.
Lines come from different studies, so protocols differ.
Medium: Caco-2

Compound | tested at | time | pH | endpoint | result
Cc1nc(N[C@@H](C)c2ccc(-c3nc(C4CC4)no3)cc2)c2cc(C)oc2n1 | – | – | – | Papp | 11.7 ×10⁻⁶ cm/s
Cc1cc(O)cc(O)c1C(=O)c1c2c3c(c(O)cc(C)c3oc1=O)C(=O)c1c(O)cc(O)cc1-2 | 200 µM | 3 h | pH 7.4 | Papp B→A | 0.031 ×10⁻⁶ cm/s
Cc1cc(N2CCC(C#N)(C3(C)CC3)C2=O)cc(C(=O)NCc2cc(F)cc(-c3cnn(C)c3)c2)n1 (racemic) | 20 µM | 2 h | pH 7.4 | Papp A→B | 22 ×10⁻⁶ cm/s
CCOC(=O)c1cc2cc(-c3cc(C(=O)NCc4ccc(C(=O)O)cc4)nn3C)ccc2[nH]1 | 50 mM | 2.5 h | pH 7.4 | Papp A→B | 0.6 ×10⁻⁶ cm/s
CCN(CC)CCN=S(=O)(c1ccccc1)N1CCCCC1 (stereo not shown) | – | – | – | Papp A→B | 16.4 ×10⁻⁶ cm/s
CCC/C(=C\C1=C(OC)C(=O)c2ccccc2C1=O)C(=O)NOC | – | – | – | Papp A→B | 41.7 ×10⁻⁶ cm/s
CCCCC[C@@H]1OC(=O)[C@@H](C)NC(=O)[C@H](CCCCC)OC(=O)[C@@H](C)NC(=O)[C@H](CCCCC)OC(=O)[C@@H](C)NC(=O)[C@H](CCCCC)OC(=O)[C@@H](C)NC1=O | 10 µM | – | – | Papp A→B | 0.186 ×10⁻⁶ cm/s
CO[C@@H](C[C@H]1C(C)=CC[C@@H]2[C@]3(C)C[C@H](O[C@@H]4O[C@@H](C)[C@H](O)[C@@H](O)[C@H]4O)[C@@H](O)C(C)(C)[C@H]3CC[C@]21C)[C@H](N)C(=O)O | 5 µM | 1 h | – | Papp A→B | 0.06 ×10⁻⁶ cm/s
O=C(C1CCN(c2nnnn2-c2ccccc2)CC1)N1CCCc2ccccc21 | 5 µM | 2 h | – | Papp A→B | 17.5 ×10⁻⁶ cm/s
NC(=O)c1c(F)ccc(OCc2nc3cc(Cl)cnc3s2)c1F | – | – | – | Papp A→B | 48.7 ×10⁻⁶ cm/s
O=C(O)c1ccc(O)c(CO)c1 | 10 mM | 2 h | – | Papp A→B | 0.1 ×10⁻⁶ cm/s
COc1ccc2c(c1OCc1ccccc1)C[C@@H](C(=O)O)N(c1nc3ccc(C#N)cc3o1)C2 | 10 µM | 90 min | pH 7.4 | Papp B→A | 13.9 ×10⁻⁶ cm/s
COC(=O)c1ccc2c(c1)NC(=O)/C2=C(\Nc1ccc2c(c1)CCN2C(=O)CN1CCOCC1)c1ccccc1 | 20 µM | 2 h | – | Papp B→A | 0.05 ×10⁻⁶ cm/s

Some of these lines once more:
Compound | tested at | time | pH | endpoint | result
O=C(C1CCN(c2nnnn2-c2ccccc2)CC1)N1CCCc2ccccc21 | 5 µM | 2 h | – | Papp A→B | 17.5 ×10⁻⁶ cm/s
Cc1nc(N[C@@H](C)c2ccc(-c3nc(C4CC4)no3)cc2)c2cc(C)oc2n1 | – | – | – | Papp | 11.7 ×10⁻⁶ cm/s
